Experimental data gathered from unrelated publications.
Protocols differ between the studies behind these lines. “And” joins repeats or separate records; there may be more than shown.
Sequence of UniProt Q2TAA2 (whole entry, looked up): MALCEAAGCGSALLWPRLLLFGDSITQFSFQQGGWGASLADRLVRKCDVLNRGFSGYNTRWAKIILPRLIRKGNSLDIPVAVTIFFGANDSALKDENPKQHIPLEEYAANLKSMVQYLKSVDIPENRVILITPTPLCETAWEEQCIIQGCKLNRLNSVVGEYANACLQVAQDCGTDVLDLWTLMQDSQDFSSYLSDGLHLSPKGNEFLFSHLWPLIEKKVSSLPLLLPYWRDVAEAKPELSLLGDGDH
Sequence of UniProt Q969F8 (whole entry, looked up): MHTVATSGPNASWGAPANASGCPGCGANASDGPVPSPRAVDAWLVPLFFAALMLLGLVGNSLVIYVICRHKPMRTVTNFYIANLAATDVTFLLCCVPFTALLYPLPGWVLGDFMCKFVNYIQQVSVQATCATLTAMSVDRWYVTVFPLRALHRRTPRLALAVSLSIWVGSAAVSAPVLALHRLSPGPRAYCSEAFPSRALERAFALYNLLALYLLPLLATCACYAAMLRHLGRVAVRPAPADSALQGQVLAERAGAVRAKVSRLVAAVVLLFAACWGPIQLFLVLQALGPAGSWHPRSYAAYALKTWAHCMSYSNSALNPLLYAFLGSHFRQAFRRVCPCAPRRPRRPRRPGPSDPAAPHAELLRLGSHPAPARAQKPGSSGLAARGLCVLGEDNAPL
Sequence of UniProt P45983 (whole entry, looked up): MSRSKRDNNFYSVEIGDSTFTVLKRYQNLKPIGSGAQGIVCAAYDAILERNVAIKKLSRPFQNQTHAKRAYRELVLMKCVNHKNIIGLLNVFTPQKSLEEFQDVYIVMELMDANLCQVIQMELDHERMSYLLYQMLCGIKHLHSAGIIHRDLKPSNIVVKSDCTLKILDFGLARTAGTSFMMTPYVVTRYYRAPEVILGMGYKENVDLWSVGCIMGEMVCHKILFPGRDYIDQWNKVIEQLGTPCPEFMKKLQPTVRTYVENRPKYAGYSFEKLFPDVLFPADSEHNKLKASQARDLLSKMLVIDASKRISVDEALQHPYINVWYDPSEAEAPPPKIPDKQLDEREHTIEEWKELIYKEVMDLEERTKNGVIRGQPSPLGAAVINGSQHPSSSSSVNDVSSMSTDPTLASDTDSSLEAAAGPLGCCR
Sequence of UniProt Q96P69 (whole entry, looked up): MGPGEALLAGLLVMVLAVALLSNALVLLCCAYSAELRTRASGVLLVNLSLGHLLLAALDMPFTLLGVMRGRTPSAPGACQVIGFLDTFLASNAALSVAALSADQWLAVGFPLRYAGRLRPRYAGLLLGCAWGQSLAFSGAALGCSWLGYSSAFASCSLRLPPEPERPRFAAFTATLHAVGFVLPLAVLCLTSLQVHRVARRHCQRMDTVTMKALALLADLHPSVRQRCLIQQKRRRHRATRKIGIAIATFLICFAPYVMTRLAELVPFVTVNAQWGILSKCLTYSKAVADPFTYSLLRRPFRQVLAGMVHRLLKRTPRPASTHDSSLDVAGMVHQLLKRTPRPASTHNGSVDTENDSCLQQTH
Sequence of UniProt P42684 (whole entry, looked up): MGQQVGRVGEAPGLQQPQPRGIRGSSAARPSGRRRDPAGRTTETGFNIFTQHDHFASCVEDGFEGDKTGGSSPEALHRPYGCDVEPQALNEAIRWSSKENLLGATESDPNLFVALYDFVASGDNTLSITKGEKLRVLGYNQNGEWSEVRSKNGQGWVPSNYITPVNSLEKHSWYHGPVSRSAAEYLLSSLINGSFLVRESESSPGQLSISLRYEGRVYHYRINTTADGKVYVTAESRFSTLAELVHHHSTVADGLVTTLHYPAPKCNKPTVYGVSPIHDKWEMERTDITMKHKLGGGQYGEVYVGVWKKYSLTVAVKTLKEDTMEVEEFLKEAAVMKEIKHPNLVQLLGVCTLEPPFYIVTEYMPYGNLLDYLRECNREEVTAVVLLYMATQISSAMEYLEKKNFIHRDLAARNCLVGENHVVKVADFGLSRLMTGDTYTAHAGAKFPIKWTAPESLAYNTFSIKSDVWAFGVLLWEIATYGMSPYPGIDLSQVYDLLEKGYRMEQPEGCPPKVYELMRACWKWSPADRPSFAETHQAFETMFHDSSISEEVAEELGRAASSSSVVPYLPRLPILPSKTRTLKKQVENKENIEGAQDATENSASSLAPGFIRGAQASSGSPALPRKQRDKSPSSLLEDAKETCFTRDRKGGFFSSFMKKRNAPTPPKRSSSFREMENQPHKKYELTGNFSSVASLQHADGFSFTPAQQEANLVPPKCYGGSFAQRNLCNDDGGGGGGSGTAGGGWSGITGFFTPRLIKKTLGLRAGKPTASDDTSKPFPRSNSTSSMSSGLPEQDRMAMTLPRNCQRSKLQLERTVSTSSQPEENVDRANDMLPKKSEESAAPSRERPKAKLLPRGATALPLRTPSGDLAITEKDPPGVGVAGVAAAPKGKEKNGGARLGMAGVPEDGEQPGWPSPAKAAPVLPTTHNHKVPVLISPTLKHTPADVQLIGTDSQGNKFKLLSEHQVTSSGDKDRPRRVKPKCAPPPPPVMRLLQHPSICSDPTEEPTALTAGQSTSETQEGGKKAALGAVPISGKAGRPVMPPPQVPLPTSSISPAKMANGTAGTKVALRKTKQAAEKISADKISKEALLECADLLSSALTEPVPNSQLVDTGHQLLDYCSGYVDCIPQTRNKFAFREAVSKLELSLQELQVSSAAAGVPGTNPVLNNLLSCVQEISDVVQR
Sequence of UniProt P62258 (whole entry, looked up): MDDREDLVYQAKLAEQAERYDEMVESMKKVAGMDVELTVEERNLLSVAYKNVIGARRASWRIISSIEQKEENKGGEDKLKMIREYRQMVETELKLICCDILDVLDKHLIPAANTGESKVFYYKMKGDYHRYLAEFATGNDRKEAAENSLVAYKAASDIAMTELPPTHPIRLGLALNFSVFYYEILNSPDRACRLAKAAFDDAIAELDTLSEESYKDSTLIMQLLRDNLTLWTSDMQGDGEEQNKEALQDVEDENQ

`[2H]c1c([2H])c([C@]2([2H])CCCN2C(=O)C(C)(C)Oc2ccc3cn[nH]c3c2)c([2H])c([2H])c1C([2H])([2H])[2H]` gave a remaining binding of 71% (ABL2 (Homo sapiens, UniProt P42684); KINOMEscan; 1 µM; baseline: DMSO control).
For `CN1CCN(c2cc(-c3ccncc3)c(-c3ccc4ccccc4c3)nn2)CC1`, the inhibition was 31.3% (KiSS-1 receptor (KISS1R, Homo sapiens, UniProt Q969F8); antagonist, FLIPR; 10 µM).
For `CN[C@]1(c2ccccc2Cl)CCCCC1=O`, the inhibition was 0% (P2X receptor; radioligand binding, agonist, radioligand displacement; 30 µM).
`C[C@H]1CN(c2n[nH]c3nc(N[C@H]4CC[C@H](NS(=O)(=O)CCC(F)(F)F)CC4)ncc23)CCO1` has a remaining binding of 1.03 (14-3-3 protein epsilon (Homo sapiens, UniProt P62258); Kinobeads competition, measured: YWHAE; 0.16 µM, unit not given; baseline: vehicle).
The peptide ratio of `O=C(c1ccc(Cl)cc1)N1CCN2C(=O)N(OC(=O)N3CCOc4ccccc43)C(=O)C2C1` (stereo not shown) is reported as 0.87 and 0.79 (Isoamyl acetate-hydrolyzing esterase 1 homolog (IAH1, Homo sapiens, UniProt Q2TAA2); MS-based ABPP; SW-620 conditioned medium; 10 µM, 1 h, 37 °C; baseline: compound over DMSO, lower = more inhibition).
`COc1ccc2c(-c3nc(-c4c(C)[nH]c5ccc(OC)cc45)cs3)c[nH]c2c1` — result for “53BP1 binding at HPV ori”: “decreased” (differentiated W12E; CUT&RUN-qPCR; concentration not given; baseline: untreated).
The tissue uptake of `CC[C@H](C)[C@H](NC(=O)[C@H](Cc1ccccc1)NC(=O)[C@H](CCC(=O)O)NC(=O)[C@H](CCCNC(=N)N)NC(=O)[C@H](C)NC(=O)[C@H](C)NC(=O)[C@H](CCC(N)=O)NC(=O)[C@H](CCC(=O)O)NC(=O)[C@H](CCC(=O)O)NC(=O)[C@H](CC(C)C)NC(=O)[C@H](Cc1ccc(O)cc1)NC(=O)[C@H](CO)NC(=O)[C@H](CO)NC(=O)[C@@H](NC(=O)[C@H](CC(=O)O)NC(=O)[C@H](CO)NC(=O)[C@@H](NC(=O)[C@H](Cc1ccccc1)NC(=O)[C@@H](NC(=O)CNC(=O)[C@H](CCC(=O)O)NC(=O)[C@H](C)NC(=O)CCc1c[nH]cn1)[C@@H](C)O)[C@@H](C)O)C(C)C)C(=O)N[C@@H](C)C(=O)N[C@@H](Cc1c[nH]c2ccccc12)C(=O)N[C@@H](CC(C)C)C(=O)N[C@H](C(=O)N[C@@H](CCCNC(=N)N)C(=O)NCC(=O)N[C@@H](CCCNC(=N)N)C(=O)N[C@@H](CCCCNC(=O)COCCOCCNC(=O)COCCOCCNC(=O)CC[C@H](NC(=O)CCCCCCCCCCCCCCCCC(=O)O)C(=O)O)C(=O)NCC(=O)NCC(=O)N[C@@H](CO)C(=O)N[C@@H](CCCCNc1c(NCCCCCN(O)C(=O)CCC(=O)NCCCCCN(O)C(=O)CCC(=O)NCCCCCN(O)C(C)=O)c(=O)c1=O)C(=O)O)C(C)C` [zirconium-89 labelled] is reported as 0.18 %ID/g (ex vivo gamma counting; rat, knee; subcutaneous, 3 nmol/kg, 72 h, together with: [89Zr]-labelled peptide).
`COc1ccc(N2C(=O)N(c3c(C)cccc3Cl)Cc3cnc(Nc4ccc(C5CCN(C)CC5)cc4OC)nc32)nc1` has an inhibition of 8% (MAPK8 (Homo sapiens, UniProt P45983); kinase activity, inhibitor; 0.5 µM, kinase JNK1).
For `C[C@@H](O)[C@@H](CO)NC(=O)[C@@H](CCCNC(=N)N)NC(=O)[C@@H]1CCCN1C(=O)[C@@H]1CSSC[C@H](NC(=O)[C@H](Cc2ccccc2)NC(=O)CN2CCN(CC(=O)O)CCN(CC(=O)O)CCN(CC(=O)O)CC2)C(=O)N[C@@H](Cc2ccc(O)cc2)C(=O)N[C@@H](Cc2ccccc2)C(=O)N[C@@H](CCC(N)=O)C(=O)N[C@@H](CC(N)=O)C(=O)N1` [gallium-68 labelled], the tissue uptake was 3.16 %ID/g (healthy Wistar rat, kidneys; intravenous, 8 MBq, 60 min, individual animals).
`Oc1ccc2c3c1O[C@H]1[C@@H](O)CC[C@@]4(O)[C@@H](C2)N(CC2CCC2)CC[C@]314` — result for “log2 fold change”: 0.225 (G-protein coupled receptor 78 (GPR78, Homo sapiens, UniProt Q96P69); β-arrestin recruitment, TANGO luminescence, measured: GPR78; concentration not given; baseline: basal luminescence).
`CC[C@H](C)[C@@H]1NC(=O)[C@@H]2CCCN2C(=O)[C@H](CC(C)C)NC(=O)[C@H](CC(C)C)NC(=O)CNC(=O)[C@@H](NC(=O)[C@@H](NC(=O)[C@H](CC(=O)O)NC(=O)CNC(=O)[C@@H](NC(=O)[C@H](C)NC(=O)CNC(=O)[C@H](CCCCN)NC(=O)[C@H](CC(C)C)NC(=O)[C@H](CC(C)C)NC(=O)[C@H](CCCCN)NC(=O)CNC(=O)[C@@H](NC(=O)[C@@H](N)CC(C)C)C(C)C)C(C)C)C(C)C)CSSC[C@@H](C(=O)O)NC1=O` — result for “log2 fold change”: -1.3 (RNA-seq, measured: Prdm1; mouse, traumatic brain injury model, frontal cortex and hippocampus; dose not given; baseline: TBI alone).
Under “incidence of Headache TRAE”, `CO[C@H]1C[C@@H]2CC[C@@H](C)[C@@](O)(O2)C(=O)C(=O)N2CCCC[C@H]2C(=O)O[C@H]([C@H](C)C[C@@H]2CC[C@@H](OC(=O)NCCOCCOCCOCCOCCOCCOCCOCCOCCC(=O)N3CCc4cc(Cn5nc(-c6ccc7oc(N)nc7c6)c6c(N)ncnc65)ccc4C3)[C@H](OC)C2)C[C@@H](O)[C@H](C)/C=C(\C)[C@@H](O)[C@@H](OC)C(=O)[C@H](C)C[C@H](C)/C=C/C=C/C=C/1C` is recorded as 0% (patients with advanced solid tumours; intravenous, 1.6 mg/3 mg weekly, grade ≥3).
`CN1CC[C@]2(C)c3cc(OC(=O)Nc4ccccc4)ccc3N(C)[C@H]12` has an inhibition of 0% (human nicotinic α3β2 receptor; radioligand binding; 10 µM, together with: [3H]epibatidine).

For quick reference, copied from above:
For `CN1CCN(c2cc(-c3ccncc3)c(-c3ccc4ccccc4c3)nn2)CC1`, the inhibition was 31.3% (KiSS-1 receptor (KISS1R, Homo sapiens, UniProt Q969F8); antagonist, FLIPR; 10 µM).
